Assay results pooled from the literature.
± gives the spread as reported.

`actinomycin Y4` has an MIC of > 9.32 µg/mL (Mycolicibacterium aurum; broth microdilution; ATCC 23366; 16 to 48 h).
`O=C(O)c1ccc(C(F)(F)F)cc1C(=O)c1ccc(Sc2ccc(Cl)c(Cl)c2)c([N+](=O)[O-])c1` has an MIC of 0.5 to 1 µg/mL (Staphylococcus epidermidis; microbial growth, broth dilution; ATCC12228).
The MIC of `CC1CCC(C(C)C)C(OC(=O)Cn2c(COc3ccccc3)[n+](C)c3ccccc32)C1` (centres unmarked) is reported as 5 µM (Mycolicibacterium smegmatis; microbial growth).
With `CC(C)[C@H](NC(=O)[C@H](CO)NC(=O)[C@H](CCCNC(=N)N)NC(=O)[C@H](CCCNC(=N)N)NC(=O)[C@H](CCCNC(=N)N)NC(=O)[C@H](CCCNC(=N)N)NC(=O)CN)C(=O)N[C@@H](CCC(N)=O)C(=O)N[C@@H](Cc1c[nH]c2ccccc12)C(=O)N[C@@H](CS)C(=O)N[C@@H](C)C(=O)O` the MIC was 48 ± 17.5 µg/mL (Streptococcus mutans; broth microdilution; GS-5; 24 h, planktonic anaerobic).
With `CCCCCCCCCCCCCCc1cc(O)cc(O)c1` the MIC was 32 µg/mL (Enterococcus faecium; microbial growth, broth dilution; drug-resistant strain).
The MIC of `CC[C@H](C)[C@H](NC(=O)[C@@H]1CCCN1C(=O)[C@H](CCCCN)NC(=O)[C@@H]1CCCN1C(=O)[C@@H]1CCCN1C(=O)[C@@H](NC(=O)[C@@H]1CCCN1C(=O)[C@H](CCCNC(=N)N)NC(=O)[C@@H]1CCCN1C(=O)[C@H](CCCCN)NC(=O)[C@H](Cc1ccc(O)cc1)NC(=O)[C@H](CO)NC(=O)CNC(=O)[C@H](CCCCN)NC(=O)[C@H](CC(=O)O)NC(=O)[C@@H](N)C(C)C)[C@@H](C)O)C(=O)N[C@@H](Cc1ccc(O)cc1)C(=O)N[C@@H](CC(N)=O)C(=O)N[C@@H](CCCNC(=N)N)C(=O)N[C@@H](CC(N)=O)C(=O)O` is reported as 0.075 ± 0.018 µM (Salmonella enterica; serovar Newport; 18 h, 37 °C, 12.5% Mueller-Hinton broth).
`CN[C@H](CC(C)C)C(=O)N[C@H]1C(=O)N[C@@H](CC(N)=O)C(=O)N[C@H]2C(=O)N[C@H]3C(=O)N[C@H](C(=O)N[C@H](C(=O)O)c4cc(O)cc(O)c4-c4cc3ccc4O)[C@H](O)c3ccc(c(Cl)c3)Oc3cc2cc(c3O[C@@H]2O[C@H](CO)[C@@H](O)[C@H](O)[C@H]2O[C@H]2C[C@](C)(N)[C@H](O)[C@H](C)O2)Oc2ccc(cc2Cl)[C@H]1O` has an MIC of 256 µg/mL (Enterococcus faecium; vancomycin-resistant ATCC 700221; 20 h).
For `N=C(N)NCCC[C@H](NC(=O)[C@H](Cc1c[nH]cn1)NC(=O)[C@@H]1CCCN1C(=O)[C@H](CS)NC(=O)CN)C(=O)N[C@@H](CS)C(=O)O`, the MIC was 90 µg/mL (Streptococcus pyogenes; broth microdilution; MTCC 442; 37 °C).
`CN[C@H](CC(C)C)C(=O)N[C@H]1C(=O)N[C@@H](CC(N)=O)C(=O)N[C@H]2C(=O)N[C@H]3C(=O)N[C@H](C(=O)N[C@H](C(=O)O)c4cc(O)cc(O)c4-c4cc3ccc4O)[C@H](O)c3ccc(c(Cl)c3)Oc3cc2cc(c3O[C@@H]2O[C@H](CO)[C@@H](O)[C@H](O)[C@H]2O[C@H]2C[C@](C)(N)[C@H](O)[C@H](C)O2)Oc2ccc(cc2Cl)[C@H]1O` has an MIC of > 50 µg/mL (Enterococcus faecium; ATCC 700221).
For `COc1ccc(/N=N/C(C=O)=C(/O)c2cc3ccccc3o2)cc1`, the MIC was 256 µg/mL (Bacillus cereus; microbial growth, broth dilution; UW85; 18 h).
For `CCCCCCCCCCCCCCCCCC(=O)N/N=C/c1ccccc1Cl`, the MIC was 29.5 µM (Staphylococcus aureus, Bacillus subtilis, Escherichia coli; bacterial growth; 24 h).
`pneumocandin I` gave an MIC of 12.8 µg/mL (Candida parapsilosis; broth microdilution, resazurin; ATCC 90018; 24 h, 35 °C).
The MIC of `CC[C@H](C)[C@H](NC(=O)[C@H](CCCNC(=N)N)NC(=O)CNC(=O)[C@H](CC(C)C)NC(=O)[C@H](Cc1ccccc1)NC(=O)[C@H](CCC(N)=O)NC(=O)[C@H](Cc1ccccc1)NC(=O)[C@@H](N)C(C)C)C(=O)N[C@H](C(=O)N[C@@H](Cc1c[nH]cn1)C(=O)N[C@@H](Cc1c[nH]cn1)C(=O)N[C@H](C(=O)NCC(=O)N[C@@H](CC(N)=O)C(=O)N[C@@H](Cc1ccccc1)C(=O)N[C@H](C(=O)N[C@@H](Cc1c[nH]cn1)C(=O)NCC(=O)N[C@@H](Cc1ccccc1)C(=O)N[C@@H](CO)C(=O)N[C@@H](Cc1c[nH]cn1)C(=O)N[C@H](C(=O)N[C@@H](Cc1ccccc1)C(N)=O)C(C)C)C(C)C)C(C)C)[C@@H](C)CC` is reported as > 128 µM (Enterobacter cloacae; broth microdilution; AR 0136; pH 7.4).
`NCC[C@H](O)C(=O)N[C@@H]1C[C@H](N)[C@@H](O[C@H]2O[C@H](CN)[C@@H](O)[C@H](O)[C@H]2O)[C@H](O)[C@H]1O[C@H]1O[C@H](CO)[C@@H](O)[C@H](N)[C@H]1O` gave an MIC of 0.25 µg/mL (Mycobacteroides abscessus; ATCC 19977 whiB7 MAB_2355 deleted; 120 h).
`CC(C)C[C@H](NC(=O)[C@H](C)NC(=O)[C@H](CC(C)C)NC(=O)[C@@H](NC(=O)[C@@H](N)CO)[C@@H](C)O)C(=O)N[C@H](C(=O)N[C@@H](CC(C)C)C(=O)N[C@@H](CCCNC(=N)N)C(=O)N[C@@H](CC(C)C)C(=O)N[C@@H](CCCNC(=N)N)C(=O)NCC(=O)NCC(=O)O)C(C)C` has an MIC of > 400 µM (Mycolicibacterium smegmatis; mc2 155; 37 °C, ≥90% viability decrease).
With `CC[C@H](C)[C@H](NC(=O)[C@H](CCCNC(=N)N)NC(=O)[C@H](CCCCN)NC(=O)[C@H](CC(C)C)NC(=O)[C@H](CC(C)C)NC(=O)CNC(=O)[C@H](Cc1c[nH]cn1)NC(=O)CNC(=O)CN)C(=O)N[C@@H](CCCCN)C(=O)N[C@H](C(=O)N[C@@H](CC(C)C)C(=O)N[C@@H](CC(C)C)C(N)=O)[C@@H](C)O` the MIC was 8 µM (Staphylococcus epidermidis; ATCC 12228; 18 to 20 h).
`O=C(NCc1ccc2c(c1)OCO2)c1ncc(Br)cc1F` has an MIC of 100 µM (Nakaseomyces glabratus; microbial growth; ATCC2001; 72 h).
For `CC1CCC(C(C)C)C(OC(=O)Cn2c[n+](CC(=O)OC3CC(C)CCC3C(C)C)c3ccccc32)C1` (centres unmarked), the MIC was 61.4 µM (Mycobacteroides abscessus; microbial growth).
The MIC of `Cc1ncc([N+](=O)[O-])n1CCO` is reported as > 256 µg/mL (Bacteroides fragilis; nim-positive reference strains).
`CC(C)C[C@H](N)C(=O)N[C@@H](CS)C(=O)N1CCC[C@H]1C(=O)N[C@@H](Cc1c[nH]cn1)C(=O)N[C@@H](CCCNC(=N)N)C(=O)N[C@@H](CS)C(=O)O` has an MIC of 20 µg/mL (Streptococcus pyogenes; broth microdilution; MTCC 442; 37 °C).
`C/C=C/C=C/C(=O)N/N=C/c1ccccc1Cl` gave an MIC of 31.6 µM (Aspergillus niger; microbial growth, broth dilution; 7 days).
With `TFFRLFNRSFTGRRRRSVQWCA` the MIC was 10.7 ± 4 µg/mL (Streptococcus mutans; broth microdilution; peptide, UA159; planktonic, anaerobic).
`CN[C@@H]1[C@H](O)[C@H](NC)[C@H]2O[C@@]3(O)C(=O)C[C@@H](C)O[C@H]3O[C@@H]2[C@H]1O` has an MIC of 32 to 64 µg/mL (Mycobacteroides abscessus; ATCC 19977 whiB7 MAB_2355 deleted; 120 h).
`O=C(N/N=C/c1ccccc1)c1cc([N+](=O)[O-])cc([N+](=O)[O-])c1` gave an MIC of 39.8 µM (Staphylococcus aureus, Bacillus subtilis, Escherichia coli; bacterial growth; 24 h).
`magainin 2` gave an MIC of > 100 µg/mL (Porphyromonas gingivalis; serial dilution; ATCC 33277; 24 h, 37 °C).
For `CC[C@H](C)[C@H](NC(=O)[C@@H]1CCCN1C(=O)[C@H](CCCCN)NC(=O)[C@@H]1CCCN1C(=O)[C@@H]1CCCN1C(=O)[C@@H](NC(=O)[C@@H]1CCCN1C(=O)[C@H](CCCNC(=N)N)NC(=O)[C@@H]1CCCN1C(=O)[C@H](CCCNC(=N)N)NC(=O)[C@H](Cc1ccc(O)cc1)NC(=O)[C@H](CO)NC(=O)CNC(=O)[C@H](CCCCN)NC(=O)[C@H](CC(=O)O)NC(=O)[C@@H](N)C(C)C)[C@@H](C)O)C(=O)N[C@@H](Cc1ccc(O)cc1)C(=O)N[C@@H](CC(N)=O)C(=O)N[C@@H](CCCNC(=N)N)C(=O)N[C@@H](CC(N)=O)C(=O)O`, the MIC was 0.098 ± 0.045 µM (Salmonella enterica; serovar Infantis #129 B; 18 h, 37 °C, 12.5% Mueller-Hinton broth).
`CCCCCCCCCCCCCC(=O)N/N=C/c1ccccc1Cl` gave an MIC of 33.9 µM (Staphylococcus aureus, Bacillus subtilis, Escherichia coli; bacterial growth; 24 h).
For `CC(C)C[C@H](NC(=O)[C@H](CCCNC(=N)N)NC(=O)[C@H](CC(C)C)NC(=O)[C@@H](NC(=O)[C@H](CC(C)C)NC(=O)[C@H](Cc1c[nH]cn1)NC(=O)[C@H](C)NC(=O)[C@@H](NC(=O)[C@@H](N)CO)[C@@H](C)O)C(C)C)C(=O)N[C@@H](CCCNC(=N)N)C(=O)NCC(=O)NCC(=O)O`, the MIC was 100 µM (Mycolicibacterium smegmatis; mc2 155; 37 °C, ≥90% viability decrease).
The MIC of `O=C(/C=C/c1ccccc1)N/N=C/c1ccccc1Cl` is reported as 43.7 µM (Staphylococcus aureus, Bacillus subtilis, Escherichia coli; bacterial growth; 24 h).
`STFFRLFNRSFTQGRRRRSVQWCA` has an MIC of 10.7 ± 4 µg/mL (Streptococcus mutans; broth microdilution; peptide, UA159; planktonic, anaerobic).
`RXRRXRRXRRXRXB (peptide-PNA conjugate)` gave an MIC of 62.5 µM (Streptococcus pyogenes; broth microdilution; peptide; 0.02% acetic acid, 0.4% BSA).
With `COc1ccc(OCc2n(CC(=O)OC3CC(C)CCC3C(C)C)c3ccccc3[n+]2C)cc1` (centres unmarked) the MIC was 5 µM (Mycolicibacterium smegmatis; microbial growth).
`Cc1cccc(C(=O)N/N=C/c2ccccc2Cl)c1` has an MIC of 45.7 µM (Staphylococcus aureus, Bacillus subtilis, Escherichia coli; bacterial growth; 24 h).
`COC(=O)[C@H](C)NC(=O)c1ccc(NC(=O)c2[nH]c(C)c(Cl)c2Cl)c(OCCN)c1` has an MIC of > 25 µM (Enterococcus faecalis; microbial growth, broth dilution; ATCC29212).
The MIC of `O=C(/C=C/c1ccccc1)N/N=C/c1ccccc1` is reported as 25.1 µM (Aspergillus niger; microbial growth, broth dilution; 7 days).
`LSTFFRLFNGRRRRSVQWCA` gave an MIC of 10.7 ± 4 µg/mL (Streptococcus mutans; broth microdilution; peptide, UA159; planktonic, anaerobic).
The MIC of `CCCCCCCCCCCCCCCC(=O)N/N=C/c1ccccc1` is reported as 33.9 µM (Staphylococcus aureus, Bacillus subtilis, Escherichia coli; bacterial growth; 24 h).
With `CC[C@H](C)[C@H](NC(=O)[C@@H]1CCCN1C(=O)[C@H](CCCNC(=N)N)NC(=O)[C@@H]1CCCN1C(=O)[C@@H]1CCCN1C(=O)[C@@H](NC(=O)[C@@H]1CCCN1C(=O)[C@H](CCCNC(=N)N)NC(=O)[C@@H]1CCCN1C(=O)[C@H](CC(C)C)NC(=O)[C@H](Cc1ccc(O)cc1)NC(=O)[C@H](CO)NC(=O)CNC(=O)[C@H](CCCCN)NC(=O)[C@H](CC(=O)O)NC(=O)[C@@H](N)C(C)C)[C@@H](C)O)C(=O)N[C@@H](Cc1ccc(O)cc1)C(=O)N[C@@H](CC(N)=O)C(=O)N[C@@H](CCCNC(=N)N)C(=O)N[C@@H](CC(N)=O)C(=O)O` the MIC was > 0.6 µM (Salmonella enterica; serovar Infantis #129 B; 18 h, 37 °C, 12.5% Mueller-Hinton broth).

A few entries again:
For `CCCCCCCCCCCCCCCCCC(=O)N/N=C/c1ccccc1Cl`, the MIC was 29.5 µM (Staphylococcus aureus, Bacillus subtilis, Escherichia coli; bacterial growth; 24 h).
`CN[C@H](CC(C)C)C(=O)N[C@H]1C(=O)N[C@@H](CC(N)=O)C(=O)N[C@H]2C(=O)N[C@H]3C(=O)N[C@H](C(=O)N[C@H](C(=O)O)c4cc(O)cc(O)c4-c4cc3ccc4O)[C@H](O)c3ccc(c(Cl)c3)Oc3cc2cc(c3O[C@@H]2O[C@H](CO)[C@@H](O)[C@H](O)[C@H]2O[C@H]2C[C@](C)(N)[C@H](O)[C@H](C)O2)Oc2ccc(cc2Cl)[C@H]1O` has an MIC of > 50 µg/mL (Enterococcus faecium; ATCC 700221).
The MIC of `CCCCCCCCCCCCCCCC(=O)N/N=C/c1ccccc1` is reported as 33.9 µM (Staphylococcus aureus, Bacillus subtilis, Escherichia coli; bacterial growth; 24 h).
`RXRRXRRXRRXRXB (peptide-PNA conjugate)` gave an MIC of 62.5 µM (Streptococcus pyogenes; broth microdilution; peptide; 0.02% acetic acid, 0.4% BSA).
